Measured values of several laboratories.
Each numbered part is a random draw from the data of one study; scales do not carry over between parts.
Chain of UniProt P9WI81 (whole entry, looked up): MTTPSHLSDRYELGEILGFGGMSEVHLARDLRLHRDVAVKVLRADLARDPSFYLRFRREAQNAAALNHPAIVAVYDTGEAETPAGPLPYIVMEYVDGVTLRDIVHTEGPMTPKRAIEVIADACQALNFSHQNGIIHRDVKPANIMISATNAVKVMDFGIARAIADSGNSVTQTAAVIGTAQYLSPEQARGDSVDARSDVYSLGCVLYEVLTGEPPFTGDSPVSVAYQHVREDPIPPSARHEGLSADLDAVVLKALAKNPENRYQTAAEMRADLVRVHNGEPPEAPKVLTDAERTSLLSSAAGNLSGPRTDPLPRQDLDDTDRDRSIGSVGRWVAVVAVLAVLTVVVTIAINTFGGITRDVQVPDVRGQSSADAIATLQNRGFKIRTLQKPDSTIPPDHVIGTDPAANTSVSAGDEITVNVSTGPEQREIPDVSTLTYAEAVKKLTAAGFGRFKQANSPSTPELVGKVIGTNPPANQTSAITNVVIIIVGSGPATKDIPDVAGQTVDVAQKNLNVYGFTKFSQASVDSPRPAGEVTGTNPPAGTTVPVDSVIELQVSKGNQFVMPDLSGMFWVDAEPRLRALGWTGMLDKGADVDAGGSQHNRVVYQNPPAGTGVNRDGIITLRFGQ
Chain of UniProt O96013 (whole entry, looked up): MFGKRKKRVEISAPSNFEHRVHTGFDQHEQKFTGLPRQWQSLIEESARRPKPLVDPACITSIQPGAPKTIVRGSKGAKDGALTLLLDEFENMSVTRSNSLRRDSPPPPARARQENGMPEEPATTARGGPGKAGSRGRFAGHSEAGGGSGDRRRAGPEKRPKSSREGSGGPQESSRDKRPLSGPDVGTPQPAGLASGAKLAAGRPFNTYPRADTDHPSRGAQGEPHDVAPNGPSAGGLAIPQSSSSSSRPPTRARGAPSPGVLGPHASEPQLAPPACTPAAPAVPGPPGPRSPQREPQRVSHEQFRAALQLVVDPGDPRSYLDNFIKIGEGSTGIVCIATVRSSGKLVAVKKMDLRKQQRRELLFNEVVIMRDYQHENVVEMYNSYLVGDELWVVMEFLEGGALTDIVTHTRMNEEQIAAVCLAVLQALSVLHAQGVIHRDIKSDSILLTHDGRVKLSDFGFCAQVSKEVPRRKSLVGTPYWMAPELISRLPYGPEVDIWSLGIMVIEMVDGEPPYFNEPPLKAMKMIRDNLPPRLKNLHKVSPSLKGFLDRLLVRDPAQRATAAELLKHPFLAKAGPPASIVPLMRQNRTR
Chain of UniProt Q9HCP0 (whole entry, looked up): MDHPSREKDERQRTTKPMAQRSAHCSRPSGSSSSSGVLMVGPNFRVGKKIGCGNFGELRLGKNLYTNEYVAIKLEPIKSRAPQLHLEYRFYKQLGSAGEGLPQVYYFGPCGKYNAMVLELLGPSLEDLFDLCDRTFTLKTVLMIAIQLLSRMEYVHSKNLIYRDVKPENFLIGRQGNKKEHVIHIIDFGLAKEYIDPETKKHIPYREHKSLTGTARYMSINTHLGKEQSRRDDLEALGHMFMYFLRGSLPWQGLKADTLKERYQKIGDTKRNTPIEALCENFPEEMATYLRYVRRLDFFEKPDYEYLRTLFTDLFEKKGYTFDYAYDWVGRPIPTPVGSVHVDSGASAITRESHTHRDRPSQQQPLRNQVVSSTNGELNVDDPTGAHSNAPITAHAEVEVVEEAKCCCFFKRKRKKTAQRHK

Study 1
Target: HLA class I histocompatibility antigen, C alpha chain, allele C*04:01 (Homo sapiens, UniProt P10321)
Read-out: peptide-MHC binding
Molecule type: peptide
Concentration: concentration not given
Molecule	binding
GLIPQWVTL	inactive
FSFFMNENF	inactive
YSLEYFQF	inactive
YRATYSMAL	inactive
YAREAGIAM	inactive

Study 2
Cell line: A-375
Concentration: 100 µM
Time: 36 h
SMILES	viability [%]
CCOc1ccc2ccccc2c1C(=O)N[C@@H]1C(=O)N2[C@@H]1SC(C)(C)[C@@H]2C(=O)O	94.8
CC(C)(C)NCC(O)c1cc(O)cc(O)c1 (stereo not shown)	113
Cc1c(Cl)cccc1Nc1ccccc1C(=O)O	92.5
CC(=O)Oc1cc(C(F)(F)F)ccc1C(=O)O	94.1
CCOC(=O)C1=C(COCCN)NC(C)=C(C(=O)OC)[C@@H]1c1ccccc1Cl	0.405
CC(=O)N[C@@H](CCC(N)=O)C(=O)O	110
CO[C@]12C[C@@H](COC(=O)c3cncc(Br)c3)CN(C)[C@@H]1Cc1cn(C)c3cccc2c13	-1.08
CN(C)C(=O)COC(=O)Cc1ccc(OC(=O)c2ccc(NC(=N)N)cc2)cc1	104

Mixed results
SMILES	target	test	conditions	how to read	endpoint	value
Cn1cncc1[C@](O)(COc1ccc(C#N)cc1-c1ccc(OC(F)(F)F)cc1)c1ccc(C#N)cc1	Casein kinase I isoform gamma-1 (CSNK1G1, Homo sapiens, UniProt Q9HCP0)	cell-free assay, competition with immobilised ligand	1 µM		remaining binding	90%
CC(C)(C)c1cc(C=C(C#N)C#N)cc(Br)c1O	Serine/threonine-protein kinase PAK 4 (PAK4, Homo sapiens, UniProt O96013)	enzyme activity, inhibitor	0.5 µM	reference: control	remaining activity	124%
C[C@@H](c1cccc(C#N)c1)n1cc(Cl)cc(C(N)=O)c1=N	Serine/threonine-protein kinase PknB (pknB, Mycobacterium tuberculosis, UniProt P9WI81)	cell-free assay, competition with immobilised ligand	1 µM		remaining binding	100%

Excerpt of the above (mixed results):
SMILES	target	test	conditions	how to read	endpoint	value
C[C@@H](c1cccc(C#N)c1)n1cc(Cl)cc(C(N)=O)c1=N	Serine/threonine-protein kinase PknB (pknB, Mycobacterium tuberculosis, UniProt P9WI81)	cell-free assay, competition with immobilised ligand	1 µM		remaining binding	100%
